Experimental data gathered from unrelated publications.
Several values in a cell are separate wells, animals, samples, runs or records. ± gives the spread as reported.

SMILES	tested on	test	test system	setting	scale	measurement	result
NCCCOc1cc(NC(=O)c2cc(Cl)cc(C(=O)Nc3cc(OCCCN)c4ccccc4n3)n2)nc2ccccc12	K-ras G-quadruplex DNA	FRET melting		1 µM, pH 7.4, with: 60 mM potassium		ΔTm	15.1 ± 0.9 K
NC(=O)c1cnc2[nH]ccc2c1N[C@@H]1[C@@H]2CC3C[C@H]1C[C@@](O)(C3)C2		regulatory T cells, flow cytometry	Caucasian humans, peripheral blood	60 mg single dose	baseline: baseline	percent change	-0.38%
CC(=O)NCCCC[C@H](NC(=O)[C@H](CC(=O)O)NC(=O)[C@H](CO)NC(C)=O)C(=O)Nc1ccc2c(C)cc(=O)oc2c1	human Y386F/Y782F mutant enzyme	substrate, fluorogenic				kcat	0.00021 ± 1e-05 s⁻¹
C#CCOc1cc(C(=O)Nc2cc(OCCN)c3ccccc3n2)nc(C(=O)Nc2cc(OCCN)c3ccccc3n2)c1	K-ras G-quadruplex DNA	FRET melting		1 µM, pH 7.4, with: 60 mM potassium		ΔTm	5.4 ± 0.4 K
CC(=O)ON=C1C=CC(=C(C#N)c2ccccc2)C=C1	pig CK1 delta/epsilon	enzyme activity, inhibitor, ADP-Glo		20 µM, about MIC, with: ATP 10 µM		remaining activity	81%
CSCC[C@@H]1NC(=O)[C@H](C)NC(=O)[C@H](CCC(N)=O)NC(=O)[C@H](CCCNC(=N)N)NC(=O)[C@H](Cc2c[nH]c3ccccc23)NC(=O)CNC(=O)[C@H](CCSC)NC(=O)[C@@H]2CCCN2C(=O)[C@H](C)NC(=O)[C@@H](NC(=O)CN)CSSC[C@@H]2NC(=O)CNC(=O)[C@H](C)NC(=O)[C@H](CC(C)C)NC(=O)[C@@H]3CSSC[C@@H](C(=O)NCC(=O)O)NC(=O)[C@H](Cc4ccccc4)NC(=O)CNC(=O)[C@H](CC(N)=O)NC(=O)[C@@H]4CCCN4C(=O)CNC(=O)[C@H](CSSC[C@H](NC(=O)[C@H](CCCNC(=N)N)NC1=O)C(=O)N[C@@H](CCCCN)C(=O)N[C@@H](CCC(N)=O)C(=O)N[C@@H](CC(=O)O)C(=O)N[C@@H](CO)C(=O)N[C@@H](CC(=O)O)C(=O)N3)NC(=O)[C@H](C(C)C)NC2=O	classical complement pathway	inhibitor, ELISA, item: C5b-9		concentration not given, saturating concentration		inhibition	~75%
CC(C)NCC(O)c1ccc(O)c(O)c1 (stereo not shown)			ventricular cardiomyocytes, C57BL/6 mouse	dose not given, 0.208 s		sarcomere length	1.49 µm
C#CCOc1cc(C(=O)Nc2cc(OCCCN)c3ccccc3n2)nc(C(=O)Nc2cc(OCCCN)c3ccccc3n2)c1	K-ras G-quadruplex DNA	FRET melting		1 µM, pH 7.4, with: 60 mM potassium		ΔTm	4.7 ± 0.3 K
CC[C@@H]1[C@H](F)C(=O)N[C@@H]1COc1nccc2cc(C(N)=O)c(OC)cc12	CK1 delta and epsilon	ATP-site probe binding, inhibitor, ActivX ATP probe profiling	THP-1 cell lysate	0.01 mM, probe site Lys2		inhibition	-6.6%
O=C(C#Cc1cn(Cc2ccccc2)c(=O)[nH]c1=O)NCc1ccccc1	MMP-2	inhibitor, colorimetric		20 µM		remaining MMP-2 activity	101 ± 4%
O=C(Nc1c[nH]nc1C(=O)NC1CCNCC1)c1cc(F)cc(F)c1	human FLT3 ITD	scanMAX		1 µM	baseline: control	remaining binding	92%
CC(=O)N[C@@H](CCCNC(=N)N)C(=O)N[C@@H](CCCNC(=N)N)C(=O)N[C@@H](Cc1ccc2ccccc2c1)C(=O)N[C@H]1CSSC[C@@H](C(=O)N[C@@H](CCCNC(=N)N)C(N)=O)NC(=O)[C@H](CCCNC(N)=O)NC(=O)[C@H](CCCNC(=N)N)NC(=O)[C@H](Cc2ccc(O)cc2)NC(=O)[C@@H]2CCCN2C(=O)[C@@H](CCCCNC(=O)CCCNC(=O)[C@H](CCCCNC(=O)CCCCCN2C(=CC=CC=CC3=[N+](CCCCS(=O)(=O)O)c4ccc(S(=O)(=O)[O-])cc4C3(C)C)C(C)(C)c3cc(S(=O)(=O)O)ccc32)NC(=O)CN(CCN(CC(=O)O)CC(=O)O)CCN(CC(=O)O)CC(=O)O)NC(=O)[C@H](CCCNC(=N)N)NC(=O)[C@H](CCCNC(N)=O)NC(=O)[C@H](Cc2ccc(O)cc2)NC1=O (single isomer, unassigned)	human CXCR4	longitudinal confocal imaging	MDA-MB-231 CXCR4	room temperature		time to internalisation	≤ 15 min
CCCC(CCC)c1nc2c(Nc3ccc(C#CCCCCCCCCN)cc3)nc3ccccc3c2[nH]1	GABAA receptor	PDSP screening				affinity	inactive
O=S(=O)(NCCNC/C=C/c1ccc(Br)cc1)c1cccc2cnccc12	PKA	inhibitor	mouse zygotes	20 µM, injection, hCG, 24 h post, early embryonic development		embryos at morula stage	0%
Nc1cc(COc2c(Cl)cc(C[C@H](N)C(=O)O)cc2Cl)c2oc(-c3ccccc3)nc2c1	B0AT1, LAT1, ASCT2	radiolabelled uptake	CHO-BC cells	3 µM, without Na+, with: L-[14C]leucine, GPNA 3 mM		L-leucine uptake	5.12 nmol/6 min/mg protein and 4.87 nmol/6 min/mg protein and 4.3 nmol/6 min/mg protein
Oc1ccccc1-c1n[nH]cc1-c1ccnc2ccccc12	CMK2 (Candida albicans)	kinase binding, MIB/MS competition	Candida albicans lysate	10 µM	baseline: DMSO	log2 fold change	-0.82
C/C=C(/C)C(=O)OC[C@H]1[C@@H](Cc2ccc(C(F)(F)F)cc2)CO[C@@H]1c1ccc(F)cc1	NF-κB	reporter gene	HEK293/NF-κB-luc	4 h, with: TNFα 2 ng/mL		IC50	≥ 20 µM
CC(Nc1nc(N2CCCC2)nc2ccccc12)c1ccccc1 (stereo not shown)	transportin-1/2	FUS nuclear import, high content imaging	HeLa Kyoto reporter	0.5 µM, 2 h		cells with nuclear reporter	94.2%
NCCOc1cc(NC(=O)c2cccc(C(=O)Nc3cc(OCCN)c4ccccc4n3)n2)nc2ccccc12	K-ras G-quadruplex DNA	FRET melting		1 µM, pH 7.4, with: 60 mM potassium		ΔTm	15.2 ± 0.7 K

SMILES	tested on	test	test system	setting	scale	measurement	result
CCN(CC)CCNC(=O)c1c(C)[nH]c(/C=C2\C(=O)Nc3ccc(F)cc32)c1C	JNK1α1 (human)	kinase activity, inhibitor		10 µM		inhibition	-1%
Cc1ncsc1-c1ccc([C@H](CC(=O)NCCOCCOCCOCCOCCOCCC(=O)N2CCC(Nc3cc(C(=O)NC[C@H](O)CN4CCc5ccccc5C4)ncn3)CC2)NC(=O)[C@@H]2C[C@@H](O)CN2C(=O)[C@@H](NC(=O)C2(F)CC2)C(C)(C)C)cc1	human MEP50	degrader, Western blot	MDA-MB-468	72 h		Dmax	> 85%
COc1ccc(-c2coc3cc(OC)ccc3c2=O)cc1	MyBP-C and MYH		iPSC-derived cardiomyocytes (human)	concentration not given	baseline: plate controls (SD units)	MyBP-C/MYH ratio	-3.1
O=C(O)CCCCCCC(=O)Nc1ccc([C@H]2O[C@@H](CSc3nc(-c4ccccc4)c(-c4ccccc4)o3)C[C@@H](c3ccc(CO)cc3)O2)cc1	human Hsp90 alpha/beta and p23	protein-protein interaction, split Renilla luciferase BLI	HEK293T	concentration not given, 24 h	baseline: vehicle	inhibition	no effect
c1coc(-c2n[nH]cc2-c2ccnc3ccccc23)c1	KIC1 (Candida albicans)	kinase binding, MIB/MS competition	Candida albicans lysate	10 µM	baseline: DMSO	log2 fold change	-0.12
Cc1[nH]c(C)c(-c2ccc(-c3cccc(OC(F)(F)F)c3)nc2)c(=O)c1Cl	Plasmodium yoelii		17XL	384-well		IC50	0.191 ± 0.069 µM
CC(C)N=C(N)c1ccc2nc(-c3ccc(OCc4cccc(COc5ccc(-c6nc7ccc(C(N)=NC(C)C)cc7[nH]6)cc5)c4F)cc3)[nH]c2c1	PU.1 (mouse)	reporter gene, inhibitor, luciferase reporter	BV-2 cells PU.1-luciferase	concentration not given	baseline: DMSO	remaining activity	88 ± 22%
COc1ccc(F)cc1C(=O)NCc1ccc(-c2nn([C@@H](C)C(F)(F)F)c(N)c2C(N)=O)cc1	MEK1/MEK2 human	ERK1/2 phosphorylation	A-375			IC50	3.79 ± 1.31 µM
C/C=C(/C)C(=O)OC[C@H]1[C@@H](Cc2ccc(C(F)(F)F)cc2)CO[C@@H]1c1ccc(OC)c(OC)c1	NF-κB	reporter gene	HEK293/NF-κB-luc	4 h, with: TNFα 2 ng/mL		IC50	≥ 20 µM
CC(=O)Nc1cccc(-n2c(=O)n(C3CC3)c(=O)c3c(Nc4ccc(I)cc4F)n(C)c(=O)c(C)c32)c1	NCI-H2087 (BRAF L597V)			concentration not given, 72 h, unit not given	baseline: DMSO	viability	0.393 and 0.711 and 0.997 and 0.39
COc1cc(-c2cc(-c3ccc(N4CCNCC4)cc3)cnc2N)cc(OC)c1OC	human CK2	enzyme activity, inhibitor		1 µM		inhibition	3%
NCCCOc1cc(NC(=O)c2cccc(C(=O)Nc3cc(OCCCN)c4ccccc4n3)n2)nc2ccccc12	K-ras G-quadruplex DNA	FRET melting		1 µM, pH 7.4, with: 60 mM potassium		ΔTm	18 ± 0.8 K
Cc1ccccc1-c1ccc([C@H]2[C@H](CO)N3C(=O)CN(C(=O)Cc4ccccn4)C[C@@H]23)cc1	IDE (Homo sapiens, UniProt P14735)	enzyme activity, inhibitor, fluorogenic kinetic		with: Mca-RPPGFSAFK(Dnp)-OH substrate		EC50	4.4 µM
C[C@H]1CCN(c2nccc(-c3cnn4ncccc34)n2)C1	human kinases, wild type	binding, KINOMEscan panel		concentration not given		percent of control	62% and 75% and 84%
COc1cc(C(=O)Nc2cc(OCCN3CCCC3)c3ccccc3n2)nc(C(=O)Nc2cc(OCCN3CCCC3)c3ccccc3n2)c1	K-ras G-quadruplex DNA	FRET melting		1 µM, pH 7.4, with: 60 mM potassium		ΔTm	17.8 ± 0.7 K
CNC(=O)[C@@H]1CC[C@@H](n2c(-c3ccc4cnccc4c3)nc3ccc(C(=O)NCc4cccc(C(N)=O)c4)cc32)C1	human FLT3 ITD	binding, KINOMEscan		1000 nM	lower = stronger binding	percent of control	88%
Cc1[nH]c(C)c(-c2ccc(OCc3ccc(F)cc3)cc2)c(=O)c1Cl	Plasmodium yoelii		17XL	384-well		IC50	1.69 ± 0.746 µM
Cl.NCCC[C@H](N)C(=O)O	MyBP-C and MYH		iPSC-derived cardiomyocytes (human)		baseline: plate	normalized MyBP-C/MYH ratio	20.7%

A few entries again:
SMILES	tested on	test	test system	setting	scale	measurement	result
Cc1[nH]c(C)c(-c2ccc(-c3cccc(OC(F)(F)F)c3)nc2)c(=O)c1Cl	Plasmodium yoelii		17XL	384-well		IC50	0.191 ± 0.069 µM
CC(C)N=C(N)c1ccc2nc(-c3ccc(OCc4cccc(COc5ccc(-c6nc7ccc(C(N)=NC(C)C)cc7[nH]6)cc5)c4F)cc3)[nH]c2c1	PU.1 (mouse)	reporter gene, inhibitor, luciferase reporter	BV-2 cells PU.1-luciferase	concentration not given	baseline: DMSO	remaining activity	88 ± 22%
COc1ccc(F)cc1C(=O)NCc1ccc(-c2nn([C@@H](C)C(F)(F)F)c(N)c2C(N)=O)cc1	MEK1/MEK2 human	ERK1/2 phosphorylation	A-375			IC50	3.79 ± 1.31 µM
C/C=C(/C)C(=O)OC[C@H]1[C@@H](Cc2ccc(C(F)(F)F)cc2)CO[C@@H]1c1ccc(OC)c(OC)c1	NF-κB	reporter gene	HEK293/NF-κB-luc	4 h, with: TNFα 2 ng/mL		IC50	≥ 20 µM
CC(=O)Nc1cccc(-n2c(=O)n(C3CC3)c(=O)c3c(Nc4ccc(I)cc4F)n(C)c(=O)c(C)c32)c1	NCI-H2087 (BRAF L597V)			concentration not given, 72 h, unit not given	baseline: DMSO	viability	0.393 and 0.711 and 0.997 and 0.39
COc1cc(-c2cc(-c3ccc(N4CCNCC4)cc3)cnc2N)cc(OC)c1OC	human CK2	enzyme activity, inhibitor		1 µM		inhibition	3%
